Experimental data collected from several papers.
UniProt Q9UJZ1, sequence (whole entry, looked up): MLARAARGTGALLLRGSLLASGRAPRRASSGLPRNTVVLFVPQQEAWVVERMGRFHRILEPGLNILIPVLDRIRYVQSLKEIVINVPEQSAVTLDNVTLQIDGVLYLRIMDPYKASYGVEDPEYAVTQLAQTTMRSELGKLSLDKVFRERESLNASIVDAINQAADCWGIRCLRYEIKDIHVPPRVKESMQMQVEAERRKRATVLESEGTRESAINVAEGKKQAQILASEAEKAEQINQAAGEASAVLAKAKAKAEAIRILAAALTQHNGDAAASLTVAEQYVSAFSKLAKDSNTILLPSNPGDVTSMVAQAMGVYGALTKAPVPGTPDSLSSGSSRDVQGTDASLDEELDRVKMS

With `CC/C(=C(\c1ccccc1)c1ccc(OCCN(C)C)cc1)c1ccccc1` the AUC(0-inf) was 8220 ng·h/mL (CD-1 mouse, male, plasma; intraperitoneal, 30 mg/kg).
Under “patients with adverse event”, `CN1CC[C@@H](c2c(O)cc(O)c3c(=O)cc(-c4ccc(C(F)(F)F)cc4Cl)oc23)[C@@H]1CO` is recorded as 0% (measured: febrile neutropenia; B-cell malignancies or AML; oral, 50 mg, grade 3 to 4, continuous dosing).
For `N#C[C@@]1(n2ccc(N)nc2=O)O[C@H](CO)[C@@H](O)[C@H]1O`, the AUC(0-inf) was 21000 ng·h/mL (CD-1 mouse, plasma; intravenous, 15 mg/kg).
The AUC(0-inf) of `Cc1ccc(F)c2cc(C(=O)N[C@@H]3CCC[C@H](N4CC[C@H](N(C)S(C)(=O)=O)C4)C3)[nH]c12` is reported as 314 ng·h/mL (CD1 mouse; intravenous, 1 mg/kg).
`COc1cc2c(cc1OC)CN(CCc1ccc(NC(=O)c3cccc4c(=O)c5cccc(OC)c5[nH]c34)cc1)CC2` has an AUC(0-inf) of 12500 ng·h/mL (CD-1 mouse, male, plasma; intraperitoneal, 10 mg/kg).
`COc1cc2c(Oc3ccc4[nH]c(C)cc4c3F)ccnc2cc1OCC1(N)CC1`: “sinus bradycardia incidence” 25% (paediatric refractory sarcoma patients; 10 mg).
For `CCC[C@@](N)(CO)CCc1ccc(OCCCCCC(C)C)cc1`, the AUC(0-inf) was 4.56 µM·h (hound dogs, male; intravenous, 1.0 mg/kg, geometric mean).
`CC[C@H](C)[C@H](NC(=O)[C@H](Cc1ccccc1)NC(=O)[C@H](CCC(=O)O)NC(=O)[C@H](CCCNC(=N)N)NC(=O)[C@H](C)NC(=O)[C@H](C)NC(=O)[C@H](CCC(N)=O)NC(=O)[C@H](CCC(=O)O)NC(=O)[C@H](CCC(=O)O)NC(=O)[C@H](CC(C)C)NC(=O)[C@H](Cc1ccc(O)cc1)NC(=O)[C@H](CO)NC(=O)[C@H](CO)NC(=O)[C@@H](NC(=O)[C@H](CC(=O)O)NC(=O)[C@H](CO)NC(=O)[C@@H](NC(=O)[C@H](Cc1ccccc1)NC(=O)[C@@H](NC(=O)CNC(=O)[C@H](CCC(=O)O)NC(=O)[C@H](C)NC(=O)CCc1c[nH]cn1)[C@@H](C)O)[C@@H](C)O)C(C)C)C(=O)N[C@@H](C)C(=O)N[C@@H](Cc1c[nH]c2ccccc12)C(=O)N[C@@H](CC(C)C)C(=O)N[C@H](C(=O)N[C@@H](CCCNC(=N)N)C(=O)NCC(=O)N[C@@H](CCCNC(=N)N)C(=O)N[C@@H](CCCCNC(=O)COCCOCCNC(=O)COCCOCCNC(=O)CC[C@H](NC(=O)CCCCCCCCCCCCCCCCC(=O)O)C(=O)O)C(=O)NCC(=O)NCC(=O)N[C@@H](CO)C(=O)N[C@@H](CCCCNc1c(NCCCCCN(O)C(=O)CCC(=O)NCCCCCN(O)C(=O)CCC(=O)NCCCCCN(O)C(C)=O)c(=O)c1=O)C(=O)O)C(C)C` [zirconium-89 labelled] has a tissue uptake of 0.08 %ID/g (ex vivo gamma counting; rat, muscle; subcutaneous, 3 nmol/kg, 72 h, added: [89Zr]-labelled peptide).
`Cc1[nH]c(C)c(S(=O)(=O)Nc2ccc(S(F)(F)(F)(F)F)cc2)c1C(=O)N1CCC(F)(F)C1` has an AUC(0-inf) of 190000 ng·h/g (mouse, plasma; intraperitoneal, 40 mg/kg).
`CO[C@H]1C[C@@H]2CC[C@@H](C)[C@@](O)(O2)C(=O)C(=O)N2CCCC[C@H]2C(=O)O[C@H]([C@H](C)C[C@@H]2CC[C@@H](OC(=O)NCCOCCOCCOCCOCCOCCOCCOCCOCCC(=O)N3CCc4cc(Cn5nc(-c6ccc7oc(N)nc7c6)c6c(N)ncnc65)ccc4C3)[C@H](OC)C2)C[C@@H](O)[C@H](C)/C=C(\C)[C@@H](O)[C@@H](OC)C(=O)[C@H](C)C[C@H](C)/C=C/C=C/C=C/1C` gave a mucositis incidence of 62.5% (patients with advanced solid tumours; intravenous, 10 mg weekly, any grade).
`C[C@H]1CN(c2n[nH]c3nc(N[C@H]4CC[C@H](NS(=O)(=O)CCC(F)(F)F)CC4)ncc23)CCO1` gave a remaining binding of 1.21 (Stomatin-like protein 2, mitochondrial (Homo sapiens, UniProt Q9UJZ1); Kinobeads competition, measured: STOML2; 0.8 µM, unit not given; baseline: vehicle).
With `CC[C@H](C)[C@@H]1NC(=O)[C@H](CCCNC(=N)N)NC(=O)C[C@@H](c2cccc3ccccc23)NC(=O)[C@@H]2CSSC[C@H](NC(=O)C[C@@H](c3cccc4ccccc34)NC(=O)[C@H](CCCNC(=N)N)NC(=O)[C@@H]3CCCN3C(=O)[C@@H]3CCCN3C1=O)C(=O)N[C@@H](Cc1ccccc1)C(=O)N1CCC[C@H]1C(=O)N[C@@H](CC(=O)O)C(=O)N[C@@H](CC(=O)O)C(=O)N[C@@H](Cc1ccccc1)C(=O)N2` the AUC(0-inf) was 701000 ng·h/mL (athymic nude mouse; intravenous, 6 mg/kg).
With `COc1ccc(C[C@@H]2NC(=O)[C@H]([C@@H](C)O)NC(=O)[C@@H]3[C@@H]4CCN3C(=O)[C@@H]3Cc5cn(c6ccc(F)cc56)CCCCCCN(Cc5ccc(cc5)CCNC(=O)[C@]5(C)CCCN5C2=O)C(=O)CCC(=O)N[C@@H](C)C(=O)N[C@H](CNC(=O)CCCCC[N+](C)(C)C)C(=O)N[C@@H](Cc2cccc(c2)CNC(=O)CO4)C(=O)N3)cc1` the AUC(0-inf) was 1.25 µM·h (healthy human males, plasma; oral, 200 mg single, geometric mean, added: Labrasol 1800 mg).
For `CN[C@H]1CC[C@@H](c2ccc(Cl)c(Cl)c2)c2ccccc21`, the AUC(0-inf) was 745 ng·h/mL (CD-1 mouse, male, plasma; intraperitoneal, 10 mg/kg).
`O=c1ccc2ncc(=O)n3c2n1C[C@H]3CN1CCC(NCc2cc3c(cn2)OCCC3)CC1` has an AUC(0-inf) of 19300 ng·h/mL (healthy human volunteers, plasma; oral, 1500 mg, single dose alone, geometric mean).

For quick reference, copied from above:
`CO[C@H]1C[C@@H]2CC[C@@H](C)[C@@](O)(O2)C(=O)C(=O)N2CCCC[C@H]2C(=O)O[C@H]([C@H](C)C[C@@H]2CC[C@@H](OC(=O)NCCOCCOCCOCCOCCOCCOCCOCCOCCC(=O)N3CCc4cc(Cn5nc(-c6ccc7oc(N)nc7c6)c6c(N)ncnc65)ccc4C3)[C@H](OC)C2)C[C@@H](O)[C@H](C)/C=C(\C)[C@@H](O)[C@@H](OC)C(=O)[C@H](C)C[C@H](C)/C=C/C=C/C=C/1C` gave a mucositis incidence of 62.5% (patients with advanced solid tumours; intravenous, 10 mg weekly, any grade).
`C[C@H]1CN(c2n[nH]c3nc(N[C@H]4CC[C@H](NS(=O)(=O)CCC(F)(F)F)CC4)ncc23)CCO1` gave a remaining binding of 1.21 (Stomatin-like protein 2, mitochondrial (Homo sapiens, UniProt Q9UJZ1); Kinobeads competition, measured: STOML2; 0.8 µM, unit not given; baseline: vehicle).
